Published values from different studies.
A part holds a random share of what one study measured. Positions count from the first letter of the parent shown.

Study 1
Target: UBE2V2 UBC core domain (UniProt Q15819)
Method: yeast two-hybrid
Matrix: yeast
Notes: mostly zero background
Relative to: not given
Reading: higher = stronger interaction
B1: ARIH1 RING domain (UniProt Q9Y4X5); chain NTRSSAQDMPCQICYLNYPNSYFTGLECGHKFCMQCWSEYLTTKIMEEGMGQTISCPAHGCDILVDDNTVM
B2: RNF11 RING domain (UniProt Q9Y3C5); chain RDGSEKKIRECVICMMDFVYGDPIRFLPCMHIYHLDCIDDWLMRSFTCPSCMEPVDAALLSS
B3: TRIM34 RING domain (UniProt Q9BYJ4); chain ILLNVQEEVTCPICLELLTEPLSLDCGHSLCRACITVSNKEAVTSMGGKSSCPVCGISYSFEHLQA
B4: RMND5B RING domain (UniProt Q96G75); chain MKCWYHSVFACPILRQQTSDSNPPIKLICGHVISRDALNKLINGGKLKCPYCPMEQNPADGK
B5: TRIM28 RING domain (UniProt Q13263); chain GAEALELLEHCGVCRERLRPEREPRLLPCLHSACSACLGPAAPAAANSSGDGGAAGDGTVVDCPVCKQQCFSKDIVE
B6: MDM2 RING domain (UniProt Q00987); chain TQDKEESVESSLPLNAIEPCVICQGRPKNGCIVHGKTGHLMACFTCAKKLKKRNKPCPVCRQPIQMIVLTYFP
B7: RNF7 RING domain (UniProt Q9UBF6); chain AICRVQVMDACLRCQAENKQEDCVVVWGECNHSFHNCCMSLWVKQNNRCPLCQQDWVVQRIGK
B8: TRIM47 RING domain (UniProt Q96LD4); chain MDGSGPFSCPICLEPLREPVTLPCGHNFCLACLGALWPHRGASGAGGPGGAARCPLCQEPFPDGLQLR
Target sequence (chain): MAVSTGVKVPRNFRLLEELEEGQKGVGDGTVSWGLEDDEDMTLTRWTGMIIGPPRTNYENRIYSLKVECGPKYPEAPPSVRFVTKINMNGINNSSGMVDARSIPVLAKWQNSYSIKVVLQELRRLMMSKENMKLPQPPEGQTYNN
`B1 (ARIH1 RING domain)` — result for “lacZ reporter activity”: 0.
For `KITELNPHLMCALCGGYFIDATTIVECLHSFCKTCIVRYLETNKYCPMCDVQVHKTRPLL (PCGF2 RING domain (UniProt P35227))`, “lacZ reporter activity” read 0.
`PLRRLQEEKLCKICMDRHIAVVFIPCGHLVTCKQCAEAVDRCPMCSAVIDFKQRVF (BIRC8 RING domain (UniProt Q96P09))`: “lacZ reporter activity” 0.
`MEEMEEELKCPVCGSFYREPIILPCSHNLCQACARNILVQTPESESPQSHRAAGSGVSDY (TRIM9 RING domain (UniProt Q9C026))` — result for “lacZ reporter activity”: 0.
`EIKDYKARLTCPCCNMRKKDAVLTKCFHVFCFECVKTRYDTRQRKCPKCNAAFGANDFHR (RNF20 RING domain (UniProt Q5VTR2))`: “lacZ reporter activity” 0.
For `B2 (RNF11 RING domain)`, “lacZ reporter activity” read 0.
`B3 (TRIM34 RING domain)` — result for “lacZ reporter activity”: 0.
Under “lacZ reporter activity”, `AAQLLEEKLTCAICLGLYQDPVTLPCGHNFCGACIRDWWDRCGKACPECREPFPDGAELR (TRIM65 RING domain (UniProt Q6PJ69))` is recorded as 0.
`B4 (RMND5B RING domain)` — result for “lacZ reporter activity”: 0.
`B5 (TRIM28 RING domain)` — result for “lacZ reporter activity”: 0.
Under “lacZ reporter activity”, `B6 (MDM2 RING domain)` is recorded as 0.
`B7 (RNF7 RING domain)` — result for “lacZ reporter activity”: 0.
`B8 (TRIM47 RING domain)`: “lacZ reporter activity” 0.

Study 2
Target: CCNA2, cyclin fold, Cln2 fusion (human)
Method: yeast growth competition, sequencing
Matrix: yeast
Notes: strong parent motif
Relative to: not given
Reading: higher = stronger binding
Starting sequence: SCAPER docking peptide (human); SNARRSLNFGGST; partner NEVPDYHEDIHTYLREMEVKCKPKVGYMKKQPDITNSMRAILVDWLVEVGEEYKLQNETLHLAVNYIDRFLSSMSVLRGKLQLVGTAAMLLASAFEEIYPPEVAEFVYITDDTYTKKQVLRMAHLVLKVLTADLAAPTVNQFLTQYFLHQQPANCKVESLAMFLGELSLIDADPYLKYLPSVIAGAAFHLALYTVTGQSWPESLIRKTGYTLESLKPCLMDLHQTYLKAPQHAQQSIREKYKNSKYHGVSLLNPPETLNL
`T13G`: “normalised enrichment score” 6.15.
`G11I`: “normalised enrichment score” 7.02.
`N8S`: “normalised enrichment score” 6.66.
Under “normalised enrichment score”, `S6R` is recorded as 6.85.
For `N8R`, “normalised enrichment score” read 5.01.
For `R4V`, “normalised enrichment score” read 3.65.
Under “normalised enrichment score”, `R5M` is recorded as 3.01.
`R5F` — result for “normalised enrichment score”: 0.523.
`L7F` — result for “normalised enrichment score”: 1.84.
Under “normalised enrichment score”, `A3Q` is recorded as -0.0442.
`S6D` — result for “normalised enrichment score”: 1.54.
`G11L`: “normalised enrichment score” 5.16.
Under “normalised enrichment score”, `S1Q` is recorded as 5.67.
For `N2H`, “normalised enrichment score” read 6.55.

Study 3
Target: ABI1, truncated, D143A, DHFR fusion (Arabidopsis thaliana, UniProt P49597)
Method: DHFR PCA, dose-response
Matrix: yeast
Notes: Hill fit, mean, not affinity
Added: (+)-ABA, dose series
Reading: lower = more sensitive
Starting sequence: PYL1, truncated, DHFR fusion (Arabidopsis thaliana, UniProt Q8VZS8); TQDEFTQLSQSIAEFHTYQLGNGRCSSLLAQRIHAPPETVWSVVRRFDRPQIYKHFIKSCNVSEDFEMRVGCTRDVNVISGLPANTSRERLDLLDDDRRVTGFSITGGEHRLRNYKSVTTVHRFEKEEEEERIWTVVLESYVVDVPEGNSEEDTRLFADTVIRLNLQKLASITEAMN
`E67R` gave an ABA EC50 of 3.28 µM.
With `L156K` the ABA EC50 was 15.6 µM.
The ABA EC50 of `R32P` is reported as 5.43 µM.
The ABA EC50 of `S171V` is reported as 2.21 µM.
`E109R` has an ABA EC50 of 16.1 µM.
`F15G` gave an ABA EC50 of 323 µM.
With `F66W` the ABA EC50 was 3.81 µM.
The ABA EC50 of `Q51I` is reported as 121 µM.
`K116F` has an ABA EC50 of 240 µM.
For `H122Q`, the ABA EC50 was 68.6 µM.
With `R155C` the ABA EC50 was 5.74 µM.
`E125V` gave an ABA EC50 of 1.58 µM.
With `Y141M` the ABA EC50 was 530 µM.
For `I52Y`, the ABA EC50 was 5.42 µM.
With `T119M` the ABA EC50 was 4.39 µM.
The ABA EC50 of `W134M` is reported as 0.94 µM.
`S42C` gave an ABA EC50 of 10.2 µM.
`D92N` gave an ABA EC50 of 29 µM.
For `N77F`, the ABA EC50 was 1.21 µM.
The ABA EC50 of `L156H` is reported as 4.25 µM.
`A13R` has an ABA EC50 of 3.88 µM.
The ABA EC50 of `R155W` is reported as 170 µM.
The ABA EC50 of `K168F` is reported as 46.9 µM.

Study 4
Target: Hepatocyte nuclear factor 3-alpha (Foxa1, Mus musculus, UniProt P35582, residues 1-468, full length assumed)
Method: EMSA with sequencing
Molecule type: double-stranded DNA, one strand shown
Matrix: in vitro
Concentration: 10 and 20 nM
Notes: whole designed probe, mean of two concentrations, ends assumed
Relative to: negative control set to 0
Reading: higher = stronger binding
All sequences stand within: GTGAGCGGTGCCCATTGATGGGGAAC … TTTCACTGGGATCGTGGGGAC
Construct (chain): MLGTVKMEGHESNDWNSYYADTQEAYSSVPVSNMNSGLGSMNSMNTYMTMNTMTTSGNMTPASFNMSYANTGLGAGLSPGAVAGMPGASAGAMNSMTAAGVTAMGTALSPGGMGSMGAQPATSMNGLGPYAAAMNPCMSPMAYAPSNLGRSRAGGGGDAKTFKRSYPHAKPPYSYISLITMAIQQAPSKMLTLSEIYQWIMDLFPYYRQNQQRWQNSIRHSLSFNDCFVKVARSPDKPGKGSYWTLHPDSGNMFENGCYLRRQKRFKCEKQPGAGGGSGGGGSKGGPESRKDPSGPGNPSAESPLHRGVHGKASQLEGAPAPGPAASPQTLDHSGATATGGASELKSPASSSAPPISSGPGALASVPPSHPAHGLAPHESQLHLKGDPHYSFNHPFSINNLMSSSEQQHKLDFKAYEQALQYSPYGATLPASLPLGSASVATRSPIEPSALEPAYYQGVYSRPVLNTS
`AAATCTAAGAATATTTTGTTTCAGGCTAGAAAGATATCTCTTTACTTGACTTTTTTCAGACCATGTTGGCCATTGTCTAATTATTTAGTACAAAGTAAACAGAAATAGAGCAGAGTAGAGCTCATTCTCCCCAAGTTGAAGCTTATCACACTCCAATGTGTGCCCTCTTAAAGCATAAAGCATGTCTCACTTT` — result for “normalised bound fraction”: 0.476 ratio.
`ATCTTCCCCCTCTTCCTTGCCCCACCAGCTCACCTACGGGGGTTATTTGCAGATAGGAAAATAAATAAAGCCGGCATTCGTTAACGCAGTTCACGCGCATACTGCTGTTTGCTCTGCATCTAACATGGTCCTTACGCGACGCCAGGCTCCGGGAGAGCAAAGCACCGTGTCAGGCGCATGATCCGGGGTGGCC`: “normalised bound fraction” 0.362 ratio.
For `GTGTGTGCGCGCGCGTGTGTGTGTGTTTTCTTAAGCCGGGCTATTCAAACCCTGCTGCAATTCTCCCAATGATTCATGGTAAAGGGGCATAATGCAAATAAACGGATTGCAAACGGCGCGGTTCGCGCACTTTGCAGCCGGCCCGGTGGAGCAGCCAGTGCCGGATTTCTCCCTTTTTTTGCAGATCTGCAGA`, “normalised bound fraction” read 0.411 ratio.
`ATCTTCCCCCTCTTCCTTGCCCCACCAGCTCACCTTCCCGGGTTATTTGCAGATAGGAAAATAACTCGGTAACACGAATATTGACCCTCTTCTGGCGCAAACTGCTGTTTGCTCTGGATGAATCATGGTCCTTTGGCGACGCCAGGCTCCGGGAGAGCAAAGCACCGTGTCAGGGCCATGATCCGGGGTGGCC` — result for “normalised bound fraction”: 0.19 ratio.
Under “normalised bound fraction”, `CAAATCAAAAGACAAAAGAAACTAATCATTCCTTTTAAAGATAATTGCTGTTTTTATCAGATCAATAAAAAATGTGTTAACAACATTAAAAAGTAATCTAGCAAACACAAATGTCAAAAAAGCTAACCTAATGATGACATGTCACTTTCTCCAGTCCCAGCCCCACATCATATAGGAACTTTCCAACTGCCTG` is recorded as 0.00478 ratio.
